Assay results pooled from the literature.
A part holds a random share of what one study measured. Substitutions count along the parent as printed.

Study 1
Target: CCNE1, cyclin fold, Cln2 fusion (human)
Technique: yeast growth competition, sequencing
Matrix: yeast
Setting: weak parent motif
Reference: not given
Direction: higher = stronger binding
Starting sequence: CDC6 docking peptide (human); TLKGRRLVFDNQL
Substitution | normalised enrichment score
TLKGRRLVFGNQL [D10G] | -0.559
TLKGRRFVFDNQL [L7F] | -0.0854
TLKGRSLVFDNQL [R6S] | -0.462
TLKGRRLVFHNQL [D10H] | 0.619
TLKGRRLVFDMQL [N11M] | 0.647
TLKGRRLVFDNQV [L13V] | 0.375
TLKGRRLVFDNDL [Q12D] | 1.08
TLKGRRLWFDNQL [V8W] | 0.914
TLGGRRLVFDNQL [K3G] | 0.0593
TLLGRRLVFDNQL [K3L] | 0.734
TMKGRRLVFDNQL [L2M] | 0.459
TLKGRDLVFDNQL [R6D] | -0.47
TLKGHRLVFDNQL [R5H] | -0.445
TLKGRRLVFDNQC [L13C] | 1.43
PLKGRRLVFDNQL [T1P] | 1.18
SLKGRRLVFDNQL [T1S] | 0.719
TLKGRRPVFDNQL [L7P] | 0.00611
TLKDRRLVFDNQL [G4D] | 0.41

Study 2
Target: RING finger protein unkempt homolog, zinc fingers 1-6, GST-SBP tag (UNK, Homo sapiens, UniProt Q9C0B0, residues 30-357)
UniProt Q9C0B0, sequence (30-357, looked up): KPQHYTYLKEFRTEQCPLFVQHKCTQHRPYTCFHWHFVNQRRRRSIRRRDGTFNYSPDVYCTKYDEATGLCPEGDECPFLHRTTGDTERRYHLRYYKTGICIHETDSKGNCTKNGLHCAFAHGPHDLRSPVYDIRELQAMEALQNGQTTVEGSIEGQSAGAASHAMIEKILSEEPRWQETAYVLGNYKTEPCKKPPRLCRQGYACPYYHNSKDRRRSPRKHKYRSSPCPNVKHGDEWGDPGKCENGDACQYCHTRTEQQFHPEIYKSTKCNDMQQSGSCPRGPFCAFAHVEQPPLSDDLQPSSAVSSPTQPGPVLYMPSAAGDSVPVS
Technique: RNA Bind-n-Seq
Form: RNA
Matrix: in vitro
Concentration: not given
Setting: RNA with constant flanks, ends assumed
Reference: input RNA pool
Direction: higher = stronger binding
All sequences stand within: GGGAGUUCUACAGUCCGACGAUC … CAACAGAGGAUUGAGCAUCA
Strand | bound/input enrichment
GUAUGCCAGGGAACACACAUUCUCUUUCGAGAAUUCAGCUUCGUCCAAGCCACCCCCCACAACCGGGUAUCAUUUUUACGGGCCUUCUGGAGAUGCUUCCGAACUGUGGGCAAAAAUGGC | 0.624 ratio
GCUAUGCAGCUAUAUUCUGUAGAUAGGAAAGUGUCUCAGCCCAUUGAAGGACAUGCAGCCCGCUUUGCACAGUUUAAGAUGGAAGGAAAUGCAGAAGAAUCAACGUUAUUUUGUUUUGCA | 0.638 ratio
UUGGAAAAUGGAUAUACCUUAUUUGAUUAUGAUGUUGGACUGAAUGAUAUAAUUCAGCUGCCCGUUCGCCCAGACCCUGAUCAUCUUCCUGGCACAUCUACACAGAUUGAGGCUAAACCC | 0.145 ratio
UAUCAUCCUGAUAAGAAUCCAAAUGCAGGAGACAAAAAUUAAAUGGAUUCUGGAUUCCUGCCGCUUCUCCCCACUCUUCUACUUGAAAAUGCAAUUAUUUUUAUUUUUACCUUUUCUUUA | 0.558 ratio
CUUUAAGUCUCUGAGAGGAGGCUGAAGAGUGUUGGGGCUCCUGGGACAUACAUGUAGAGUUCCCCGCAAAGUGGGCGCCUUUCUCGUCCACAGCAUUUAAAGAGAGGAAGGAGAACCAUC | 0.263 ratio
GCAGACUUGGUAAAACCCAGGGUACAGUUAGAUUUUUUGUUGUUGUUGUAUUAUUUAAAUUACCGCCUUCCAAAAACUGUUUUUGAUCAUAAUUGCUGUAUCAUUUGUAAUUUUUUUUAA | 10.9 ratio

Study 3
Target: Interferon regulatory factor 7, full length, phosphomimetic (IRF7, Homo sapiens, UniProt Q92985, residues 1-503, S101K/S471D/S472D/S475D/S476D/S477D/S483D/S484D/S487D)
Technique: protein-binding microarray
Form: double-stranded DNA, one strand shown
Matrix: in vitro
Concentration: 250 nM
Setting: 60-bp whole probe
Together with: salmon DNA 0.4 mg/ml
Reference: random background probes
Direction: higher = stronger binding
All sequences stand within: GCCTAGCAC … GTCTTGATTCGCTTGACGCTGCTG
Construct (chain): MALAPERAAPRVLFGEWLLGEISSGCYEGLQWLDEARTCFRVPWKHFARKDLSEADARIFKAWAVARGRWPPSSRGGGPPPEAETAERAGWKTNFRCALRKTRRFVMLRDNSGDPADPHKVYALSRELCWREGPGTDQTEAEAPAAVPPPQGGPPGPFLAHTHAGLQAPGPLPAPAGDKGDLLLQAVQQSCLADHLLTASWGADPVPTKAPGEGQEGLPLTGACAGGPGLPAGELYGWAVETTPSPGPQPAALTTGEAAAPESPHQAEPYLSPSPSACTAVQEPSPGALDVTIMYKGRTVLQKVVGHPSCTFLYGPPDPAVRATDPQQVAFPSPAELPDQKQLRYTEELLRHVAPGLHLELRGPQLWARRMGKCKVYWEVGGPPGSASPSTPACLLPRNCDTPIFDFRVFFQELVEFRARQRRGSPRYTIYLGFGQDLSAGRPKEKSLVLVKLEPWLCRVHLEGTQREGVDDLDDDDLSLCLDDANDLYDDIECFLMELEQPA
Strand | log fluorescence [z-score]
TTAGCACTGGGACTGGGTTAGTGCTAG | 0.00206
GACGGACTGGGACCGGGGACGTGCTAG | -0.136
GATGATTTCAGTTCCGAGACGTGCTAG | 0.701
GACGGTTTCGACACTGGGGTCGTGCTA | 3.73
TCATGTAACTCCTATCCAACTGTGCTA | 0.128
TTAGGACTGGAATATCGGTTAGTGCTA | 0.0518
TCAATTCTCTGCTTGCGACTGTGCTAG | 0.694
GACGGACTGGGTTTGGGGACGTGCTAG | -0.451
TCAACTTTCTTTCAAATACTGTGCTAG | 0.397
TTAGATTCGAGTTTCGATTAGTGCTAG | 11.6
TCAATTTTCAGTATTACACTGTGCTAG | 0.552
GGTGATTTCAGTTTTCTTTTGTGCTAG | 1.49

Study 4
Target: Histone acetyltransferase KAT6A, both winged helices, GST fusion (KAT6A, Homo sapiens, UniProt Q92794, residues 1-181)
Technique: protein binding microarray
Form: double-stranded DNA, one strand shown
Matrix: in vitro
Concentration: not given
Setting: 8-mer, flanks averaged, mean of 2 arrays, mostly near background
Reference: not given
Direction: higher = stronger binding
Target sequence (chain): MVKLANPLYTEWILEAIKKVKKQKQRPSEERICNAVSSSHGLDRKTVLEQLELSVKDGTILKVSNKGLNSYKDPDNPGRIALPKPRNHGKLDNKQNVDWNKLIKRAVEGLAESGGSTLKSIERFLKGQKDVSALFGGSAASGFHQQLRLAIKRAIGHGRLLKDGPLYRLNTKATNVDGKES
Strand | E-score
AAACGGGG | 0.148
TACTATCA | -0.0424
AAGCAACC | 0.11
CAGAAAGA | -0.143
GAGTTTCA | -0.0627
GGCTGGAA | -0.129
ACCGAAGA | -0.103
TATAGCAA | -0.0544
CGTGATCC | -0.0321
TGTCGCAA | 0.0846
CGTACTGA | 0.11
ACTGCCTA | -0.211
CGATTTTA | -0.0478
ACAATGGT | -0.104
CCTGTCCC | -0.0844
CACTCGAC | -0.0415
CTACCCAC | -0.181
CCTCGAGC | -0.0362

Study 5
Target: Ras GTPase-activating protein-binding protein 1, full length (G3BP1, Homo sapiens, UniProt Q13283)
UniProt Q13283, sequence (whole entry, looked up): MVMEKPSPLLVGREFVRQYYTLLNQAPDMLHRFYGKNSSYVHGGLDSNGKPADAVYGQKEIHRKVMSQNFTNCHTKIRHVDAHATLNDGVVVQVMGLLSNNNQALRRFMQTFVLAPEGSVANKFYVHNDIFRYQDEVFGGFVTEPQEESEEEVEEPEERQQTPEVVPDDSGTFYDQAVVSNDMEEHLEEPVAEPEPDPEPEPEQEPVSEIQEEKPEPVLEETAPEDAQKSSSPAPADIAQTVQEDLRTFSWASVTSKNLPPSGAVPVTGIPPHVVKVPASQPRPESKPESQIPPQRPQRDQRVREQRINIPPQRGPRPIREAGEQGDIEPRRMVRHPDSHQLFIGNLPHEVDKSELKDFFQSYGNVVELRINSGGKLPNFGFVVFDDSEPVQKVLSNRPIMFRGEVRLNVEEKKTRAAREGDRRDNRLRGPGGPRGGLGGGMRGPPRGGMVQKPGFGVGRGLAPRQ
Technique: RNA Bind-n-Seq
Form: RNA
Matrix: in vitro
Concentration: 200 nM
Setting: whole 134-nt RNA, ends assumed
Together with: 150 mM LiCl
Reference: input library
Direction: higher = stronger binding
Library: 7-deaza-guanosine replaces G
All sequences stand within: GGGAGUUCUACAGUCCGACGAUC … UGGAAUUCUCGGGUGUCAAGG
Strand | log2 enrichment
UGGGGUAGACCAGUUCCAUGGCACUGAAUAUGUGUGCUGCCCUCAGACAAAGAUUAUUGGAUCUGUGUCAAAAGAAGAGGAAGAGGAAGA | -0.647
UGGCCCUGGUGGCAUGCGGGGAGGAAGAGGUGGCCUCAUGGAUCGUGGUGGUCCCGGUGGAAUGUUCAGAGGUGGCCGUGGUGAAGACAG | -0.414
UGGCCCUGGUGGCAUGCGGGGAGGAAGAGGUGGCCUCAUGGAUCGUGGUGGUCCCGGUGGAAUGUUCAGAGGUGGCCCUGGUGGAGACAG | 0.306
CACAGACAACACGCACCCACACAGACACAGAGGGAAGGGCUUGGGAUGGGGACAGGGUGCACAGCAGGGCGGGGUAGGACCCCAGCCCCU | -0.999
UCAAGUCCUGUGCUACACAUCGUAUGUACCGAAUCGGAAAGGUUUUUUUGGUGGAAAGUAUUAUGUUACGCCGUUCGGAUCUGCACUUCC | -0.377
UAACUUUAGAGGAGGAUCUGAUGGAUAUGGCAGUGGACGUGGAUCUGGGGAUGGCUAUAAUGGGUAUGGAGGAGGACCUGGAGGUGGCAA | -0.539
AAGUCCUGUGCUACACAUCGUAUGUACCGAAUCGGGGUUUGGGGUGGGGAAAGGGGAAAGUAUUAUGUUACGCCGUUCGGAUCUGCACUU | 0.416
UACUCUCUCGGGGCUGGAAGCUUCCUGACUGAAGAUCUCUCUGCACUUGGGGUUCUUUCUAGAACAUUUUCUAGUCCCCCAACACCCUUU | 0.0894
CAAGUCCUGUGCUACACAUCGUAUGUACCGAAUCGGGGAGGGGAAAGGGGAGGGGAAAGUAUUAUGUUACGCCGUUCGGAUCUGCACUUC | 0.421
UCAAGUCCUGUGCUACACAUCGUAUGUACCGAAUCGGAAAAAAAGGUGGUUUGGAAAGUAUUAUGUUACGCCGUUCGGAUCUGCACUUCC | -1.06
CCUGUGCUACACAUCGUAUGUACCGAAUCGGGGUUUGGGGAAAAAGGGGAAAAAAAGGGGAAAGUAUUAUGUUACGCCGUUCGGAUCUGC | 0.289

Study 6
Target: Prothrombin, mature alpha-thrombin (F2, Homo sapiens, UniProt P00734)
Technique: aptamer microarray, sandwich
Form: DNA with 2'F-ANA
Matrix: in vitro
Concentration: 200 nM
Setting: whole 15-mer aptamer, many near background
Together with: Cy3 exosite-II aptamer, 400 nM
Direction: higher = stronger binding
Strand: GGTTGGTGTGGTTGG
Modification | mean fluorescence intensity
2'F-ANA at 1 2 5 7 12 14 15 | 43 a.u.
2'F-ANA at 2 5 7 8 10 11 15 | 46.9 a.u.
2'F-ANA at 1 3 6 8 9 11 12 13 14 | 98.2 a.u.
2'F-ANA at 1 4 5 8 9 10 12 13 14 15 | 51.2 a.u.
2'F-ANA at 1 2 3 4 5 7 9 10 12 14 | 46.9 a.u.
2'F-ANA at 2 5 6 8 10 11 13 15 | 83.7 a.u.
2'F-ANA at 2 9 12 13 14 | 159 a.u.
2'F-ANA at 1 2 3 8 11 14 15 | 68.6 a.u.
2'F-ANA at 1 2 3 4 5 6 14 15 | 46.7 a.u.
2'F-ANA at 1 2 5 7 10 12 15 | 46.7 a.u.
2'F-ANA at 3 4 6 7 8 9 14 | 324 a.u.
2'F-ANA at 4 5 6 9 10 11 | 48.3 a.u.
2'F-ANA at 1 4 6 7 9 10 13 15 | 49.3 a.u.
2'F-ANA at 2 4 5 7 10 11 13 15 | 48.1 a.u.
2'F-ANA at 1 2 4 5 7 9 10 11 13 | 48.3 a.u.
2'F-ANA at 1 2 3 4 5 6 7 10 11 12 13 14 | 48.7 a.u.

A few entries again (study 5):
Strand | log2 enrichment
UGGGGUAGACCAGUUCCAUGGCACUGAAUAUGUGUGCUGCCCUCAGACAAAGAUUAUUGGAUCUGUGUCAAAAGAAGAGGAAGAGGAAGA | -0.647
UGGCCCUGGUGGCAUGCGGGGAGGAAGAGGUGGCCUCAUGGAUCGUGGUGGUCCCGGUGGAAUGUUCAGAGGUGGCCGUGGUGAAGACAG | -0.414
UGGCCCUGGUGGCAUGCGGGGAGGAAGAGGUGGCCUCAUGGAUCGUGGUGGUCCCGGUGGAAUGUUCAGAGGUGGCCCUGGUGGAGACAG | 0.306
CACAGACAACACGCACCCACACAGACACAGAGGGAAGGGCUUGGGAUGGGGACAGGGUGCACAGCAGGGCGGGGUAGGACCCCAGCCCCU | -0.999
UCAAGUCCUGUGCUACACAUCGUAUGUACCGAAUCGGAAAGGUUUUUUUGGUGGAAAGUAUUAUGUUACGCCGUUCGGAUCUGCACUUCC | -0.377
UAACUUUAGAGGAGGAUCUGAUGGAUAUGGCAGUGGACGUGGAUCUGGGGAUGGCUAUAAUGGGUAUGGAGGAGGACCUGGAGGUGGCAA | -0.539
AAGUCCUGUGCUACACAUCGUAUGUACCGAAUCGGGGUUUGGGGUGGGGAAAGGGGAAAGUAUUAUGUUACGCCGUUCGGAUCUGCACUU | 0.416
UACUCUCUCGGGGCUGGAAGCUUCCUGACUGAAGAUCUCUCUGCACUUGGGGUUCUUUCUAGAACAUUUUCUAGUCCCCCAACACCCUUU | 0.0894
CAAGUCCUGUGCUACACAUCGUAUGUACCGAAUCGGGGAGGGGAAAGGGGAGGGGAAAGUAUUAUGUUACGCCGUUCGGAUCUGCACUUC | 0.421
UCAAGUCCUGUGCUACACAUCGUAUGUACCGAAUCGGAAAAAAAGGUGGUUUGGAAAGUAUUAUGUUACGCCGUUCGGAUCUGCACUUCC | -1.06
CCUGUGCUACACAUCGUAUGUACCGAAUCGGGGUUUGGGGAAAAAGGGGAAAAAAAGGGGAAAGUAUUAUGUUACGCCGUUCGGAUCUGC | 0.289
